Measurements of several laboratories.
Numbered parts are unrelated; each lists some results of a single study.

Block 1
Target: Histone acetyltransferase KAT6A, both winged helices, GST fusion (KAT6A, Homo sapiens, UniProt Q92794, residues 1-181)
Method: protein binding microarray
Form: double-stranded DNA, one strand shown
Medium: in vitro
Concentration: not given
Notes: 8-mer, flanks averaged, mean of 2 arrays, mostly near background
Baseline: not given
Reading: higher = stronger binding
Construct (chain): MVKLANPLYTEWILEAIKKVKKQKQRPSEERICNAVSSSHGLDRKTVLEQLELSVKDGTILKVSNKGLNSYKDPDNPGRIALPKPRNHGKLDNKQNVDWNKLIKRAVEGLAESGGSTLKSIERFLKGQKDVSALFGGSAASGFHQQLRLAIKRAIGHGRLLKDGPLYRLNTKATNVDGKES
Oligonucleotide | E-score
GCTAGGTA | -0.105
GCCATGGC | -0.00383
CTGATGCC | -0.0235
CTTGGAGA | -0.112
AATTCAAT | -0.0138
GTACGAGA | -0.0161
CTGTTACC | -0.134
GACTCGAA | -0.0259
ACGCAAGT | 0.0719
CTTGACTA | -0.133
CCCACGAC | -0.224
CAATAGCA | -0.0545
ACTTTCGC | 0.0791
ATAAGACG | -0.0275
CCTTTAGC | -0.0892
AATGGGAA | -0.308
TCCGAGCA | -0.01

Block 2
Target: RNA binding protein fox-1 homolog 2, RRM domain, GST-SBP tag (RBFOX2, Homo sapiens, UniProt O43251-10, residues 100-194)
Method: RNA Bind-n-Seq
Form: RNA
Medium: in vitro
Concentration: 365 nM
Notes: natural RNA segment, single round, ends assumed
Baseline: no-protein control
Reading: higher = stronger binding
Residues (chain): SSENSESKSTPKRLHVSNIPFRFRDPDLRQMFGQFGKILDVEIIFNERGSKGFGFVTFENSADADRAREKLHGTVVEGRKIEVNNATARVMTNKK
Oligonucleotide | RBNS enrichment (R)
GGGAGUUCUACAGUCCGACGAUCAUUGGAAGUAUAAGUUUUGAGUGGCAUUGUUGCCUUCUAACAAGCUCUCUGGGACUUUUAAAGUUUUAUUACUAUUAUUGCUAAUGUAUGAUUAUGGUCAGAGACUUUCAUGGAAUUCUCGGGUGCCAA | 0.426
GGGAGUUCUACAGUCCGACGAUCCUAGAAAAAAAAAAAAAAAAGCCCUUUUCAGUUUGUGCACUGUGUAUGGUCCGUGUAGAUUGAUGCAGAUUUUCUGAAAUGAAAUGUUUGUUUAGACGAGAUCAUACCGGUGGAAUUCUCGGGUGCCAA | 0.888
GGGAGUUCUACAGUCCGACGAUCUAGCUGAUUGUUCCCACUUGCACCUCUCCACCUUUGGCACUAGAACUCCUGAGACACCACUUCUCAUGCUUCUCCCUCCCUACCAGCGGUCAAGGCUUUGGAGCCACUCUUGGAAUUCUCGGGUGCCAA | 0.501
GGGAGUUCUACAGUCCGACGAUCUAGCAGGCCUUUGUAUGUGUGUACAUAUAUAUAUAUAUAACAAAACAUCAGCCUUGGGUGGUGUGUUCCUAUAUAAACUCCAAAGGGAAACACACCGACUGCCUCAGCAAUGGAAUUCUCGGGUGCCAA | 0.274
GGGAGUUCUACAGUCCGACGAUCGUUAGACAUUAACAAACAGCAGGAAAAUGUCACAUAACCUGGAAAGACCGCACUGGAGUUGGGUGUGUUCUGAGUUUCUGUCCAGAUGUGAUUUCAGCAGUCAUGGUAUUUGGAAUUCUCGGGUGCCAA | 0.84
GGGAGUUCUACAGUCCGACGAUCUCCUGCGGAAGCAGUGACCUCUGACCCCUGGUGACCUUCGCUUUGAGUGCCUUUUGAACGCUGGUCCCGCGGGACUUGGUUUUCUCAAGCUCUGUCUGUCCAAAGACGCUUGGAAUUCUCGGGUGCCAA | 0.154
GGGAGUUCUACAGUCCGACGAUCCUCUGGUGCUGUAUAAAGGGAAUAUUAAACUAGAUGUAAAUCAAAGUAUAUGUUUGGCUCAUUUGAGCAUUUUGGAAUAUUUGAGAAUGUAUGAUACAUGUAAAAUUAAAUGGAAUUCUCGGGUGCCAA | 1.64
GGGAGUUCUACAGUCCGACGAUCCCUCCCAUGACCAGGCAGUGGUCACCCCAUGGGACAGGCACAGCUACUUACGCGAACACAGCAGGUUGGUGUGGCUGGCUAACUAGGACCUCUCGAAAGUCUCUGUGGGGUGGAAUUCUCGGGUGCCAA | 0.307
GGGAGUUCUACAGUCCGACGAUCGGCUUGUUUGUUCCCUACCAAUAUUCUGUUGCUGUUUGAAGUAGUGCCAGGGUCCCCUGGGAAGAUGCCCCCAAGACACCUGCCCCAAGUGGGUGGAUAUCUGCCUUCCUUGGAAUUCUCGGGUGCCAA | 0.407
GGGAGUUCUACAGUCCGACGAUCGCAAUCUCUAUUUCAUUAUCCUGUAAGGAAUAAAUAAGACAUUCAAUAUUGACCUAACUAACUUGAAUGUCUCAUAUGAUGAAUCAAUAAACUAUGUGCACAUAGCUUUGUGGAAUUCUCGGGUGCCAA | 0.331
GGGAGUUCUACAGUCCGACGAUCAUGACUCUCUGCUAUUCAUGAAUCUUGCUAUUGCACAAACCCUAUCAAGAGCUGCUGCUUCCCUUCCAGCCAGAAAAGUGGUAAGCGGAGCAAGUGCCAAGCAGAACAGAUGGAAUUCUCGGGUGCCAA | 0.557

Block 3
Target: Interferon regulatory factor 7, full length, phosphomimetic (IRF7, Homo sapiens, UniProt Q92985, residues 1-503, S101K/S471D/S472D/S475D/S476D/S477D/S483D/S484D/S487D)
Sequence of UniProt Q92985 (whole entry, unmodified, looked up): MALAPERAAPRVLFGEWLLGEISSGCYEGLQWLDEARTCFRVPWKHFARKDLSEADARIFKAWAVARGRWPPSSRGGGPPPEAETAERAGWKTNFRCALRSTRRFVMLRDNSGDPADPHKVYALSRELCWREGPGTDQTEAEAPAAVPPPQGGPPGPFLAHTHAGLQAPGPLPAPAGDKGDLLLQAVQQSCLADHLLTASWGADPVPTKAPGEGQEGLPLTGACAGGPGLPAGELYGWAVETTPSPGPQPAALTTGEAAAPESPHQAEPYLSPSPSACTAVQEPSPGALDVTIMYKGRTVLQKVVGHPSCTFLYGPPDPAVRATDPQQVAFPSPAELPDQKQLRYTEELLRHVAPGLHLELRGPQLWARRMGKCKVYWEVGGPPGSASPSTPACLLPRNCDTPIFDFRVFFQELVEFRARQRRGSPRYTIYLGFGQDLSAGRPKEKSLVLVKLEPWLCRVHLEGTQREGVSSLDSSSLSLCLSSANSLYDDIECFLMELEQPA
Method: protein-binding microarray
Form: double-stranded DNA, one strand shown
Medium: in vitro
Concentration: 250 nM
Notes: 60-bp whole probe
Together with: salmon DNA 0.4 mg/ml
Baseline: random background probes
Reading: higher = stronger binding
Constant ends, left off below: GCCTAGCAC … GTCTTGATTCGCTTGACGCTGCTG
Oligonucleotide | log fluorescence
TTAGGTTTCCTTTTCCTTTGGTGCTAG | 6.37 z-score
TTAGATTTCAGTTTCTATTAGTGCTAG | 4.49 z-score
TTAGGATCCCTTTTCCTTTAGTGCTAG | 2.01 z-score
TTAGGTATCGACTTTCGTTTAGTGCTA | 3.6 z-score
TTAGGAATGGACTTTCGGTTAGTGCTA | 0.985 z-score
TCACACATATAATTTTGTACTGTGCTA | 0.537 z-score
TTAGGTATCAGGACTGGGTTAGTGCTA | -0.204 z-score
TTAGGTATCGGAATCGGTTAGTGCTAG | 2.64 z-score
TCAGTTCACTATTTAAGACTGTGCTAG | 1.4 z-score
GACGGACTGGACCCTGGGGACGTGCTA | -0.56 z-score
GACGGACTGCTAATGCTGACGTGCTAG | -0.781 z-score
TTGGGACTGCTACTGCTTTAGTGCTAG | -0.785 z-score
TTAGATATCGGGTATGGATTAGTGCTA | -0.0279 z-score

Block 4
Target: Phosphate system positive regulatory protein PHO4, full length, GST-tagged (PHO4, Saccharomyces cerevisiae, UniProt P07270, residues 1-312)
Method: competition protein-binding microarray
Form: double-stranded DNA, one strand shown
Medium: in vitro
Concentration: 2 µM
Notes: whole 60-bp probe, lowest competitor level
Together with: Cbf1 competitor, 0.05 µM
Reading: higher = stronger binding
Target sequence (chain): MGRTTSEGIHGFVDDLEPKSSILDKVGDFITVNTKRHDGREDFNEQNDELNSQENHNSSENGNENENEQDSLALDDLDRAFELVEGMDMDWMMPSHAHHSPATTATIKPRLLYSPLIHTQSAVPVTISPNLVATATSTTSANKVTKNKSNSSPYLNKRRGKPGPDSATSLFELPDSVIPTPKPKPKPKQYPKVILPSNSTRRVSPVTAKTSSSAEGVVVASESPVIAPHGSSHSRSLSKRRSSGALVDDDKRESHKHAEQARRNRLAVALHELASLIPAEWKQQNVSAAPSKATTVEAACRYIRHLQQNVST
Oligonucleotide | fluorescence intensity
GCGTAAGTCGCTCCACACGTACATTGCTGTGGTGCAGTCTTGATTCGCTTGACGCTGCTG | 5770 a.u.
GTCTTGTCTCATTGTCACTGAACTTTCCCCACTTCAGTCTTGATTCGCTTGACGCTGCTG | 4200 a.u.
CCAGTTGGTTAAGGCACCGTGCTAATATCGCGGGGAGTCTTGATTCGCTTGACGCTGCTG | 7690 a.u.
CTGTAGAAGCTAGTACTTGTGATGAACCATTGGCAGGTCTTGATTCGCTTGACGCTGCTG | 3420 a.u.
GATTGGGAAATCTCTAATGTGACAGTCCATACTTGTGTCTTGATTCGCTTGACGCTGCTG | 3260 a.u.
CGTCCTAGTGATTTTCACGTGGACTCCATGAGGAAGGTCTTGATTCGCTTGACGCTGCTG | 10600 a.u.
GACTTTTTCCTGAGGCACATGTGTGGCCATCGTCAAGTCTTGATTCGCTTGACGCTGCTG | 11700 a.u.
TATTAACGCTGCTGTCATGCCATCTCAATGGGAATTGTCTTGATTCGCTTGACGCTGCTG | 4540 a.u.
GAACCTGTGGAATTAAGCATGACAATTGGAAAGTCCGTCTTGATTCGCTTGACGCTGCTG | 4110 a.u.
CGTCCTAGTGATTGTCCAGTGGGTGCCATGAGGAAGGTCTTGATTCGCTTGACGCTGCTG | 6580 a.u.
CTTTCCCGATCTTTTCACGTGCTTTTAGCACATTTGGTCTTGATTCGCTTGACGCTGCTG | 13100 a.u.
GGACGCGTAGAGGCGCACGTGTCCCGGCCCGGAGCCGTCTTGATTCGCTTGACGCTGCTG | 16400 a.u.

Block 5
Target: RING finger protein unkempt homolog, zinc fingers 1-6, GST-SBP tag (UNK, Homo sapiens, UniProt Q9C0B0, residues 30-357)
Sequence of UniProt Q9C0B0 (30-357, looked up): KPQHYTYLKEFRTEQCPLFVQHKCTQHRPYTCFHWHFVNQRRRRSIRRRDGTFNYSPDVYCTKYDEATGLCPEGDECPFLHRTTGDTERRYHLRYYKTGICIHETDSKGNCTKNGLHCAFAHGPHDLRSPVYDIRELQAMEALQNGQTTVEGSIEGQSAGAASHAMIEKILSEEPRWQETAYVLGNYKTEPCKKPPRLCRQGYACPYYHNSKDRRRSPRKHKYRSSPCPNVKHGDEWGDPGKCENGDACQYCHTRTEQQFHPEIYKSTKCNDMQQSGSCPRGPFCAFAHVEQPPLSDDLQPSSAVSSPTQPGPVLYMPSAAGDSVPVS
Method: RNA Bind-n-Seq
Form: RNA
Medium: in vitro
Concentration: not given
Notes: RNA with constant flanks, human and mouse sites, ends assumed
Baseline: input RNA pool
Reading: higher = stronger binding
Oligonucleotide | bound/input enrichment [ratio]
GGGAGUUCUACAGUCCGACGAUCUUCGAUGUGAGAAUUGAACGAGAUGCACAAGAAAUGGCUGAUAGUUUAGGAGUUAGAAUUUUUAGUGCAGAAAUUAUUUAUCAUUUAUUUGAUGCCUUUACAAAAUAUAGACAAGACUACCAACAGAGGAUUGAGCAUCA | 43.5
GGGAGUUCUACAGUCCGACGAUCACACAAAUGUACCCUUACUCCAGUCUGUCCCUCACCUCCAUUGUCUAAGGUAUUGGACUUAGAUGCUUAUGUGUAAUAUGUUGAACCUGUCAGUUGCUGUCUUUUUCCUUCUUCGCAUUUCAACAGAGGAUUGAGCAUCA | 0.237
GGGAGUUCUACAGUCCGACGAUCCACCUACUAACCUCACUGUCCUACAAAGUUCGAAUGCAAGCACUGAAAUGUUUCUCAGUUUUAGCUUUUGAAAACCCCCAGGUAUCGAUGACCCUGGUAAAUGUUUUGGUUGAUGGAGAACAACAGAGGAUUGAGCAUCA | 0.228
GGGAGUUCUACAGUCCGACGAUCAUAACAAUUGAUGUUUGUUUUCUGUUUGAUUUUAAACAGAGAAAAAAUAAAAGGGGGUAAUAGCUCCUUUUUUCUUCUUUCUUUUUUUUUUUCAUUUCAAAAUUGCUGCCAGUGUUUUCACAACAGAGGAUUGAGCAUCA | 0.744
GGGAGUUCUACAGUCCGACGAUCACACAUAGAGAAGCUGCAUUGUGGAUUAUAUGGGAAUCACUUUGUGAUGCUUUCUGCUGUUAGUUUUUCUUGGGUUUUUGUUUGUUUUGUUUGCAAAUCUGAUGUCUCAUCACUGCAGGUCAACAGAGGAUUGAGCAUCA | 0.357
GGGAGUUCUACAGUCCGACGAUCACAACAGCUAGAGCUUUUGCUGUCGUAGCCUCUGCCCUGGGCAUCCCUUCUUUAUUGCCUUUCUUAAAAGCUGUGUGCAAAAGCAAGAAGUCUUGGCAAGCGAGGCACACUGGUAUUAAGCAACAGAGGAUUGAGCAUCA | 0.126
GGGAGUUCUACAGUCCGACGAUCAGGACACGGCCACGGGAGAGGCGAGGGUAACUGGGAGACUGUGCGGCUCGGCGGGCUGGGCCGUCAGGCUGAGAGCUGCUGCUGGGAGGGCGUGACUGGCGAAGGCUGGAGGUUCGGCUUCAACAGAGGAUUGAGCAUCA | 0.126
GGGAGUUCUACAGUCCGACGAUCUUAGCUUAUGGCAAUCAAGAGAGCAAGCUCAUCAUUCUGGCCAGUGGUGGACCCCAAGCCUUAGUAAACAUAAUGAGGACCUACACUUAUGAGAAGCUUCUGUGGACCACAAGCAGAGUGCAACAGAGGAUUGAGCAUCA | 3.4
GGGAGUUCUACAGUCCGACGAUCAAGAUUGGGCUUAUUCAGUUUUGCUUAUCUGCUCCUAAAACAGAUAUGGAUAAUCAAAUAGUAGUAUCUGACUAUGCCCAGAUGGAUCGAGUGCUUCGAGAGGAGAGAGCCUAUAUUUUACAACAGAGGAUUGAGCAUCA | 0.242
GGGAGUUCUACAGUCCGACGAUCGAUGACUGGCUGGAAAACAGGAAAAGAACACAGAAAAGACAGGCACCUGAAUGGACAGAAGAGGACCUCAGUCAACUGACAAGAAGUAUGGUUAAGUUCCCAGGAGGGACUCCAGGUCGACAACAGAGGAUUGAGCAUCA | 0.229
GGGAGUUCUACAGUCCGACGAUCUUGUCCUAUGAUGCUAUUAUCAUAGACUAAUGACAUUUAUCUUCAAAACACCAAAUUGUCUUUAGAAAAAUUAAUGUGAUUACAGGUAGAGGCCUUCUAGGUGAGACACUUUUAAGGUACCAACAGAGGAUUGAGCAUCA | 0.798

A few entries again (block 1):
Oligonucleotide | E-score
TCCGAGCA | -0.01
CTTGACTA | -0.133
GACTCGAA | -0.0259
AATGGGAA | -0.308
GTACGAGA | -0.0161
